Experimental data collected from several papers.
Observed: cell growth or viability

SMILES	cell line	method	concentration	time	quantity	result
O=C(Nc1ccc(-c2ccc3ncn(Cc4ccccc4)c(=O)c3c2)cn1)C1CC1	NCI-H1975	CCK-8		72 h	IC50	> 10 µM
c1cc(Nc2nccc(NC3CCCCC3)n2)cc(-c2cc[nH]n2)c1	BJ	ATP luminescence		72 h	EC50	> 15 µM
CC(=NNC(=O)c1ccc(N)cc1)c1ccc(Nc2nnc(-c3ccc(Cl)cc3)c3ccccc23)cc1	HepG2	MTT	0.625 µM		cell death	8.51%
NCC(=O)Nc1ccccc1/N=c1\cc(-c2ccc3c(c2)OCO3)oc2c([N+](=O)[O-])cccc12	NCI-H1975	CCK-8	1 µM		inhibition	6.59%
FC(F)(F)C1(Nc2ccnc(Nc3cccc(-c4cccnc4)c3)n2)CC1	BJ	ATP luminescence		72 h	EC50	> 7 µM
CCCC(=O)Nc1ccc(-c2ccc3ncn(Cc4ccc(C)cc4)c(=O)c3c2)cn1	NCI-H1975	CCK-8		72 h	IC50	8.77 µM
CCC(=CCc1c(O)cc2c(c1O)C(=O)C[C@@H](c1ccc(O)cc1)O2)CC	HeLa	MTT	1.563 µM	48 h	inhibition	-5.98%
O=C(C=Cc1ccccc1)Nc1ccc(Oc2nnc(-c3ccc(Cl)cc3)c3ccccc23)cc1	HepG2	MTT	0.312 µM		cell death	0.383%
CC(C)Nc1ccnc(Nc2ccccc2-c2ccccc2)n1	BJ	ATP luminescence		72 h	EC50	> 10 µM
Cc1n[nH]c2ccc3nc(-c4ccc(C(=O)N(C)CCN(C)C)cc4)c4c(c3c12)CCCCC4	K562	resazurin		72 h	GI50	9.8 µM
C[C@H](N)C(=O)Nc1ccccc1/N=c1\cc(-c2ccc3c(c2)OCCO3)oc2cc(F)ccc12	MOLM-13	CCK-8	1 µM		inhibition	2.17%
COc1ccc(NC(=O)c2c(Nc3ccccc3)sc(C(=O)NN=Cc3ccc(Br)cc3)c2NC(C)=O)cc1	HepG2	SRB	1 nM	48 h	viability	101%
c1ccc(N2CCCC(Nc3nccc(NC4CCCCC4)n3)C2)cc1 (stereo not drawn)	BJ	ATP luminescence		72 h	EC50	> 11 µM
S=C(Nc1ccccc1)Nc1ccc(Oc2nnc(-c3ccc(Cl)cc3)c3ccccc23)cc1	HepG2	MTT	1.25 µM		cell death	42.9%
Nc1nc2ccc(-c3c/c(=N\c4ccccc4NC(=O)CCN4CCOCC4)c4ccccc4o3)cc2o1	NCI-H1975	CCK-8	1 µM		inhibition	5%
CC(=NNC(N)=S)c1ccc(Nc2nnc(-c3ccc(Cl)cc3)c3ccccc23)cc1	HepG2	MTT	78 nM		cell death	4.45%
C#CCn1cnc2ccc(-c3ccc(NC(=O)CCCC)nc3)cc2c1=O	NCI-H1975	CCK-8		72 h	IC50	> 10 µM
NCCC(=O)Nc1ccccc1/N=c1\cc(-c2ccc3oc(N)nc3c2)oc2ccccc12	MOLM-13	CCK-8	1 µM		inhibition	21.2%
CC(C)(C)c1cc(NC(=O)Nc2ccc(-c3cn4c(n3)sc3cc(OCCN5CCOCC5)ccc34)cc2)no1	U-937			72 h	GI50	> 10 µM
CC(=NNC(=O)c1cccnc1)c1ccc(Nc2nnc(-c3ccc(Cl)cc3)c3ccccc23)cc1	HepG2	MTT	2.5 µM		cell death	93.1%
COc1ccc(NC(=O)c2c(Nc3ccccc3)sc(C#N)c2NC(=O)CNc2ccc(Br)cc2)cc1	HCT-116	SRB	10 nM	48 h	viability	95.2%
COCCNC(=O)c1ccc(-c2nc3ccc4[nH]ncc4c3c3c2CCCC3)cc1	K562	resazurin		72 h	GI50	6.3 µM
CCCn1cnc2ccc(-c3ccc(N4CCCCC4=O)nc3)cc2c1=O	HCC827	CCK-8		72 h	IC50	> 10 µM

SMILES	cell line	method	concentration	time	quantity	result
Cc1n[nH]c2ccc3nc(-c4ccc(C(=O)NCCN(C)C)cc4)c4c(c3c12)CCC(F)(F)C4	K562	resazurin		72 h	GI50	5.8 µM
Cc1ccccc1NC(=O)Nc1ccc(-c2ccc3ncn(Cc4ccccc4)c(=O)c3c2)cn1	HCC827	CCK-8		72 h	IC50	2.46 µM
COc1ccc(NC(=O)c2c(Nc3ccccc3)sc(C#N)c2NC(=O)CNc2ccc(OC)c(OC)c2)cc1	HCT-116	SRB	10 nM	48 h	viability	87.3%
CCCn1cnc2ccc(-c3ccc(N4CCCC4=O)nc3)cc2c1=O	NCI-H1975	CCK-8		72 h	IC50	> 10 µM
CC(=NNC(=O)c1ccccc1Cl)c1ccc(Nc2nnc(-c3ccc(Cl)cc3)c3ccccc23)cc1	HepG2	MTT	0.625 µM		cell death	71.7%
CCCCCC(=O)Nc1ccc(-c2ccc3ncn(CCCC)c(=O)c3c2)cn1	HCC827	CCK-8		72 h	IC50	2.41 µM
COc1ccc(NC(=O)c2c(Nc3ccccc3)sc(C#N)c2NC(=O)CNc2ccccc2[N+](=O)[O-])cc1	HepG2	SRB	1 µM	48 h	viability	67.3%
Cc1nc(Nc2ncc(C(=O)Nc3c(C)cccc3Cl)s2)cc(N2CC[C@H](O)C2)n1	L-82	ATP luminescence	10 µM	72 h	inhibition	17%
c1cc(Nc2nccc(NC3CCCCC3)n2)cc(C2CC2)c1	BJ	ATP luminescence		72 h	EC50	12.2 µM
O=C(Nc1ccccc1/N=c1\cc(-c2ccc3c(c2)OCO3)oc2ccccc12)N1CCOCC1	NCI-H1975	CCK-8	1 µM		inhibition	0.46%
COc1ccc(NC(=O)c2c(Nc3ccccc3)sc(C(=O)NN=Cc3ccc(C)cc3)c2NC(C)=O)cc1	HCT-116	SRB	10 µM	48 h	viability	76.3%
CCCCCC(=O)Nc1ccc(-c2ccc3ncn(CC4CC4)c(=O)c3c2)cn1	HCC827	CCK-8		72 h	IC50	0.17 µM
c1cncc(-c2cccc(Nc3nccc(OC4CCCCC4)n3)c2)c1	BJ	ATP luminescence		72 h	EC50	> 6 µM
COc1ccc(NCC(=O)Nc2c(C#N)sc(Nc3ccccc3)c2C(=O)Nc2ccc(OC)cc2)cc1	HCT-116	SRB	0.1 µM	48 h	viability	74.2%
O=C(Nc1ccc(Oc2nnc(-c3ccc(Cl)cc3)c3ccccc23)cc1)c1ccccc1	MCF7	MTT	0.156 µM		cell death	77.6%
c1cncc(-c2cccc(Oc3nccc(OC4CCCCC4)n3)c2)c1	BJ	ATP luminescence		72 h	EC50	> 13 µM
C[C@H](N)C(=O)Nc1ccccc1/N=c1\cc(-c2ccc3c(c2)OCO3)oc2ccccc12	MOLM-13	CCK-8	1 µM		inhibition	1.12%
COc1ccc(NC(=O)c2c(Nc3ccccc3)sc(C#N)c2NC(=O)CNc2ccccc2)cc1	HCT-116	SRB	1 µM	48 h	viability	91.1%
COc1ccc2/c(=N/c3ccccc3NC(=O)[C@@H](N)C(C)(C)C)cc(-c3ccc4c(c3)OCO4)oc2c1	HCT-116	CCK-8	1 µM		inhibition	7.26%
CNC(=O)c1cc(Oc2ccc(NC(=O)Nc3ccc(Cl)c(C(F)(F)F)c3)cc2)ccn1	HCT-116	SRB	0.1 µM	48 h	viability	72.8%
C[C@H](N)C(=O)Nc1ccccc1/N=c1\cc(-c2ccc3c(c2)OCCO3)oc2c([N+](=O)[O-])cccc12	MOLM-13	CCK-8	1 µM		inhibition	-0.07%
c1cncc(-c2cccc(Nc3nccc(NC4CCCCC4)n3)c2)c1	BJ	ATP luminescence		72 h	EC50	> 9 µM
